Assay results from different studies.
Parts stem from different laboratories: compare values within a part only. “And” joins repeats or separate records; there may be more than shown.

Set 1
Cell line: normal adjacent epithelium patient-derived organoids
Technique: CellTiter-Glo
Concentration: 1 µM
Notes: mean of five organoid lines
Baseline: DMSO
With `O=c1nc(-c2ccccn2)sc2ccccc12` the viability was 102%.
`Cc1c(N2CCNCC2)nc2ccc(Br)cc2c1C(=O)NC[C@H](CCC(=O)O)c1ccccc1Cl` gave a viability of 102%.
With `CN(C)CC#Cc1ccc(OCCCc2sc(N3CCc4cccc(C(=O)Nc5nc6ccccc6s5)c4C3)nc2C(=O)O)c(F)c1` the viability was 67.3%.
With `Cc1ccc2[nH]c(CNCCCc3ccncc3)cc(=O)c2c1` the viability was 109%.
The viability of `CN([C@@H]1CCc2c(CC(=O)O)c3ccccc3n2C1)S(=O)(=O)c1ccc(F)cc1` is reported as 112%.
The viability of `Cc1nc(N2CC[C@@H](O)C2)ncc1-c1cc(C(F)(F)F)cc2[nH]ncc12` is reported as 96.6%.
`CC(=O)C1=C(C)N(c2cccc(C(F)(F)F)c2)C(=O)N[C@@H]1c1ccc(C#N)nc1` has a viability of 107%.
For `CCOCCn1cc(C(=O)Nc2ccc(-n3nc(-c4cccnc4)cc3C(F)(F)F)cn2)ccc1=O`, the viability was 105%.
`c1ccc(N2CCN(Cc3nc4ccccc4[nH]3)CC2)nc1` has a viability of 111%.
With `O=C(Nc1cccnn1)N1CCC(=Cc2cccc(Oc3ccc(C(F)(F)F)cn3)c2)CC1` the viability was 99.3%.
`CC(=O)N1CCC(c2ccc(C(=O)NC(=N)N)cc2C(F)(F)F)CC1` gave a viability of 104%.
For `C[C@@H]1CN(c2cc(-c3nn(C)c4ccc(OC5(C)CC5)cc34)ncn2)C[C@H](C)O1`, the viability was 99.7%.
`CN(C)C(=O)Cn1cc(-c2nc(C3(c4ccc(-c5cnc(N)nc5)cc4)CC3)no2)cn1` gave a viability of 98.3%.
The viability of `CO[C@@H](C)c1c(Nc2ccc([C@H](N(C)C(=O)C3CCS(=O)(=O)CC3)C(F)(F)F)cc2)cnc2cc(Cl)nn12` is reported as 89.2%.
`C[C@H](NC(=O)c1cnc2n1[C@](C)(Cc1ccc(C#N)cc1)C(=O)N2c1cc(Cl)c(F)c(Cl)c1)C(=O)NC1(c2ccccn2)CC1` has a viability of 109%.
With `O=C(NC[C@@H]1[C@H]2CN(C(=O)OCc3cc(C(F)(F)F)cc(C(F)(F)F)c3)C[C@@H]12)c1ccc2[nH]nnc2c1` the viability was 94.3%.
With `O=C1NC(c2ccccn2)Sc2ccccc21` (centres unmarked) the viability was 105%.
`CC1=C(C#N)C(c2ccc3[nH]nc(C)c3c2)C(C#N)=C(C)N1` has a viability of 110%.
With `Cc1ccccc1Oc1cc(-n2c(=O)cc(C(F)(F)F)[nH]c2=O)c2ccccc2c1Cl` the viability was 109%.
`CC(=O)c1c(NS(C)(=O)=O)c2cc(-c3ccc(Cl)cc3)c(-c3ccc(Cl)cc3Cl)nc2n(C)c1=O` has a viability of 104%.
With `CNCc1ccccc1-c1csc([C@@H](C)Nc2nc(C)nc3cc(OC)c(OC)cc23)c1` the viability was 71.1%.
`CCCCN(CCCC)C(=O)CN1C[C@@H](c2cc(OC)c3c(c2)OCO3)[C@H](C(=O)O)[C@H]1CC(C)(C)CCC` has a viability of 112%.
`O=C(NS(=O)(=O)c1ccc(NCC2CCOCC2)c([N+](=O)[O-])c1)c1ccc(N2CCN(Cc3ccc(C(F)(F)F)cc3-c3ccc(Cl)cc3)CC2)cc1Oc1cnc2[nH]ccc2c1` has a viability of 104%.
`Cc1ccc2nc(CNCCCOc3ccccc3)cc(O)c2c1` gave a viability of 122%.
The viability of `CCS(=O)(=O)c1cc2cc(C[C@](O)(CC(C)(C)c3ccc(F)cc3C(N)=O)C(F)(F)F)[nH]c2cn1` is reported as 104%.

Set 2
Target: Serine/threonine-protein kinase PAK 5 (PAK5, Homo sapiens, UniProt Q9P286)
Chain of UniProt Q9P286 (whole entry, looked up): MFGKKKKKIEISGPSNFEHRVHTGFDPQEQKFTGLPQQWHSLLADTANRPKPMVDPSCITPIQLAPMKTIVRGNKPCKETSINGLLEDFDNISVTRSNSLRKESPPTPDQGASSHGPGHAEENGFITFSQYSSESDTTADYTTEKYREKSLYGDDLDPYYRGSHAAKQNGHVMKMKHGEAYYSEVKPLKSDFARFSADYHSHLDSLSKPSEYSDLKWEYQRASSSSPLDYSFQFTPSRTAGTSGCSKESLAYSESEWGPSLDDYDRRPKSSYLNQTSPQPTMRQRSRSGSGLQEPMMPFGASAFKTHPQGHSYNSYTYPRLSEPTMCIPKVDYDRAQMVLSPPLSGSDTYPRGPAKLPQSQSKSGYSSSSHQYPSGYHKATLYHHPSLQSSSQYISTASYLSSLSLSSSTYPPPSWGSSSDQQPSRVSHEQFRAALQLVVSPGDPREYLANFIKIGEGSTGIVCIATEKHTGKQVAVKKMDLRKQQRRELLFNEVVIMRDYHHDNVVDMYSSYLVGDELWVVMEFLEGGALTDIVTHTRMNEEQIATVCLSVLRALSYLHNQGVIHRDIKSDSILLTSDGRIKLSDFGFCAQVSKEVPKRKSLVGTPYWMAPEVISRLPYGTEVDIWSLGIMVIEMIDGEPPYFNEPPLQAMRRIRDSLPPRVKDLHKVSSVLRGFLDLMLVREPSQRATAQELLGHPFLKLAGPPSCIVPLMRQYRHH
Observed: enzyme activity
Mode: inhibitor
Concentration: 0.5 µM
Baseline: control
`CC#CC(=O)Nc1cc2c(Nc3ccc(F)c(Cl)c3)ncnc2cn1` has a remaining activity of 102%.
`Cc1cncc2cccc(S(=O)(=O)N3CCCN(C(=O)CN)C[C@@H]3C)c12` gave a remaining activity of 100%.
`O=S(=O)(NCCNC/C=C/c1ccc(Br)cc1)c1cccc2cnccc12` gave a remaining activity of 91.4%.
`N#CC(=C(N)Sc1ccc(N)cc1)c1ccccc1C(F)(F)F` gave a remaining activity of 104%.
For `CC[n+]1c(/C=C/N(C)c2ccccc2)n(-c2ccccc2)c2ccc(-c3nc4ccccc4s3)cc21`, the remaining activity was 98.6%.
For `COc1cc(Nc2c(C#N)cnc3cc(OCCCN4CCN(C)CC4)c(OC)cc23)c(Cl)cc1Cl`, the remaining activity was 83.6%.
The remaining activity of `NC(=O)c1ccc(N(C(N)=O)c2c(F)cccc2F)nc1-c1ccc(F)cc1F` is reported as 96.4%.
For `O=C1Cc2c([nH]c3ccc([N+](=O)[O-])cc23)-c2ccccc2N1`, the remaining activity was 71.4%.

Set 3
Cell line: A-375
Concentration: 100 µM
Time: 36 h
`N#C[C@@H]1C[C@@H]2C[C@@H]2N1C(=O)[C@@H](N)C12CC3CC(CC(O)(C3)C1)C2` has a viability of 109%.
`N[C@@H](CC(=O)N1CCn2c(nnc2C(F)(F)F)C1)Cc1cc(F)c(F)cc1F` has a viability of 101%.
With `CC(C)NCC(O)c1cc(O)cc(O)c1` (centres unmarked) the viability was 103%.
The viability of `CC1(C)O[C@@H]2[C@@H](CO[C@@]3(COS(N)(=O)=O)OC(C)(C)O[C@@H]23)O1` is reported as 125%.
`Cc1cc(O)cc(C)c1Cl` has a viability of 24.6%.
`COc1ccc2[nH]c([S+]([O-])Cc3ncc(C)c(OC)c3C)nc2c1` (centres unmarked) gave a viability of 22%.
For `CC1=C(/C=C/C(C)=C/C=C/C(C)=C/C(=O)O)C(C)(C)CCC1`, the viability was 36%.

Set 4
Organism: Sarcocystis neurona
Observed: parasite growth
Concentration: 10 µM
Notes: secondary screen
With `Cc1ncc([N+](=O)[O-])n1CC(C)O` (centres unmarked) the inhibition was -23%.
`O=C1NC(=O)C(c2ccccc2)(c2ccccc2)N1` has an inhibition of -5.6%.
The inhibition of `CN1CCCC(n2nc(Cc3ccc(Cl)cc3)c3ccccc3c2=O)CC1` (centres unmarked) is reported as 84.2%.
The inhibition of `C#C[C@]1(O)CC[C@H]2[C@@H]3CCc4cc(OC)ccc4[C@H]3CC[C@@]21C` is reported as -84%.
The inhibition of `Oc1ccc(C2CNCCc3c2cc(O)c(O)c3Cl)cc1` (centres unmarked) is reported as -47.2%.
For `NC(=O)c1ncn([C@@H]2O[C@H](CO)[C@@H](O)[C@H]2O)n1`, the inhibition was -44.9%.
With `CCC1=C[C@@H]2CN(C1)Cc1c([nH]c3ccccc13)[C@@](C(=O)OC)(c1cc3c(cc1OC)N(C)[C@H]1[C@@](O)(C(=O)OC)[C@H](OC(C)=O)[C@]4(CC)C=CCN5CC[C@]31[C@@H]54)C2.O=C(O)C(O)C(O)C(=O)O.O=C(O)C(O)C(O)C(=O)O` the inhibition was -13.5%.
`CC[C@]1(O)C[C@H]2CN(CCc3c([nH]c4ccccc34)[C@@](C(=O)OC)(c3cc4c(cc3OC)N(C=O)[C@H]3[C@@](O)(C(=O)OC)[C@H](OC(C)=O)[C@]5(CC)C=CCN6CC[C@]43[C@@H]65)C2)C1` has an inhibition of -22.5%.
`O=C(CCCN1CCC(O)(c2ccc(Cl)cc2)CC1)c1ccc(F)cc1` gave an inhibition of 42.3%.
The inhibition of `COc1cc(C)c(/C=C/C(C)=C/C=C/C(C)=C/C(=O)O)c(C)c1C` is reported as -99.8%.

Set 5
Cell line: mouse MPNST tumor cells
Technique: high-content immunofluorescence imaging
Refers to: nuclear SOX9
Concentration: 10 µM
Time: 12 h
Notes: mean of 2 replicates
Baseline: DMSO control
Direction: higher = more nuclear SOX9
`C=CCOc1ccc(C2CC(=O)Nc3nc(N)[nH]c(=O)c32)cc1OC` (centres unmarked): “nuclear SOX9 intensity” 101 % of DMSO.
For `CCC1(c2ccccc2)NC(=O)N(C)C1=O` (centres unmarked), “nuclear SOX9 intensity” read 89.6 % of DMSO and 110 % of DMSO.
`COc1c(C)cnc(Cn2cnc3c(Cl)nc(N)nc32)c1C`: “nuclear SOX9 intensity” 75 % of DMSO.
`O=C(NC(Cc1cc(=O)[nH]c2ccccc12)C(=O)O)c1ccc(Cl)cc1` (centres unmarked): “nuclear SOX9 intensity” 99.6 % of DMSO.
Under “nuclear SOX9 intensity”, `NC[C@@H]1O[C@H](O[C@H]2[C@@H](O)[C@H](O[C@@H]3[C@@H](O)[C@H](N)C[C@H](N)[C@H]3O[C@H]3O[C@H](CO)[C@@H](O)[C@H](O)[C@H]3N)O[C@@H]2CO)[C@H](N)[C@@H](O)[C@@H]1O` is recorded as 117 % of DMSO and 100 % of DMSO.
For `CC(N/C(=N\C#N)Nc1ccncc1)C(C)(C)C` (centres unmarked), “nuclear SOX9 intensity” read 89.7 % of DMSO and 82 % of DMSO.
For `Nc1nnc(Sc2ncc([N+](=O)[O-])s2)s1`, “nuclear SOX9 intensity” read 106 % of DMSO.
`CN[C@@H]1[C@H](O[C@H]2[C@H](O[C@H]3[C@H](O)[C@@H](O)[C@H](N=C(N)N)[C@@H](O)[C@@H]3N=C(N)N)O[C@@H](C)[C@]2(O)C=O)O[C@@H](CO)[C@H](O)[C@H]1O` — result for “nuclear SOX9 intensity”: 94.1 % of DMSO.
`C#C[C@]1(O)CC[C@H]2[C@@H]3CCc4cc(O)ccc4[C@H]3CC[C@@]21C`: “nuclear SOX9 intensity” 145 % of DMSO and 160 % of DMSO.

Excerpt of the above (set 5):
`COc1c(C)cnc(Cn2cnc3c(Cl)nc(N)nc32)c1C`: “nuclear SOX9 intensity” 75 % of DMSO.
For `CCC1(c2ccccc2)NC(=O)N(C)C1=O` (centres unmarked), “nuclear SOX9 intensity” read 89.6 % of DMSO and 110 % of DMSO.
Under “nuclear SOX9 intensity”, `NC[C@@H]1O[C@H](O[C@H]2[C@@H](O)[C@H](O[C@@H]3[C@@H](O)[C@H](N)C[C@H](N)[C@H]3O[C@H]3O[C@H](CO)[C@@H](O)[C@H](O)[C@H]3N)O[C@@H]2CO)[C@H](N)[C@@H](O)[C@@H]1O` is recorded as 117 % of DMSO and 100 % of DMSO.
`C#C[C@]1(O)CC[C@H]2[C@@H]3CCc4cc(O)ccc4[C@H]3CC[C@@]21C`: “nuclear SOX9 intensity” 145 % of DMSO and 160 % of DMSO.
`CN[C@@H]1[C@H](O[C@H]2[C@H](O[C@H]3[C@H](O)[C@@H](O)[C@H](N=C(N)N)[C@@H](O)[C@@H]3N=C(N)N)O[C@@H](C)[C@]2(O)C=O)O[C@@H](CO)[C@H](O)[C@H]1O` — result for “nuclear SOX9 intensity”: 94.1 % of DMSO.
For `Nc1nnc(Sc2ncc([N+](=O)[O-])s2)s1`, “nuclear SOX9 intensity” read 106 % of DMSO.
`C=CCOc1ccc(C2CC(=O)Nc3nc(N)[nH]c(=O)c32)cc1OC` (centres unmarked): “nuclear SOX9 intensity” 101 % of DMSO.
`O=C(NC(Cc1cc(=O)[nH]c2ccccc12)C(=O)O)c1ccc(Cl)cc1` (centres unmarked): “nuclear SOX9 intensity” 99.6 % of DMSO.
